# Published values of several laboratories.
# Numbered parts are unrelated; each lists some results of a single study.

# Sample 1
# Target: RNA binding protein fox-1 homolog 2, RRM domain, GST-SBP tag (RBFOX2, Homo sapiens, UniProt O43251-10, residues 100-194)
# Method: RNA Bind-n-Seq
# Molecule type: RNA
# Sample: in vitro
# Concentration: 365 nM
# Setting: natural RNA segment, single round, ends assumed
# Relative to: no-protein control
# Direction: higher = stronger binding
# All sequences stand within: GGGAGUUCUACAGUCCGACGAUC … UGGAAUUCUCGGGUGCCAA
# Construct (chain): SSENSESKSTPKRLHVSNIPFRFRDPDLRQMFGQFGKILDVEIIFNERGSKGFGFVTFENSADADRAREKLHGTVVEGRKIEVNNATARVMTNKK
Sequence,RBNS enrichment (R)
AGGCUCAGCCCGCUGGAGCAUGAGCUCUGUGUGUACCGAGAACUGGGGUGAUGUUUUACUUUUCACAGUAUGGGCUACACAGCAGCUGUUCAACAAGAGUAAAUAUUGUC,0.356
GUGUCUCGUUCUCCACGGUGCUGGAGACCUCAUUACUUUGGAAAACUCACUGUUCCCCAGCACAGCACAGCUGCAUGACCUCAGCUUCAGACUGAUGUCAGCCAGCCUUC,0.261
GCCGGCCCUGUCAUGCGCAGGUUUUCCACUCAUCUGAGGAAGAGCCAGGGCUCUGAAUUUAGCCUAACACUCAUCUUGGCUGUGGGCUUGGGAAGAAAUGGCCAUUAUUU,0.368
GCUGUGUCCUGUCUACCUGUGUGUUCUCUGACUACCGCACUGGCCAUUAAAUAUGGCAGAGACUGCCCACCGCUGUCCUGAGGAAGUGUUUGUGGGGGGAGGGCUGGGAA,1.4
UCAGUGAUAGGCAUUGAGAUCAUGCAUUCGACCAUUUGUCCUGUUCUAAUUAUGAAGAGCGUACCAGAAGUCUGUAUGAUAUUAGUGUCAUAUUUCAUUCAAAUGCCAAU,0.31
AUUUGAAACCAAGGGACAAGACAACCUGCAGCUGACGCUCUGACAUUUCAUGACAGUUUCCUCUUUAGGGACAGCUGAGUUGCCAGUUGUGGGAGAGAACCCGGGGCCUG,0.344
UGCUGAAAAAUGUGUUCUAAUGCAACACAAAAACAUGAAGUGACUGCCCAGAGGUAGAGUUAGUGUUUAGGUGGAAAGGGAGAUGACAGCUUUCCAAAGAAGGACCUAAA,0.972
GAUGGAACACUUCCAGUGAUGGUAAGAGAUCUGUUAUGAAACGAAACACCCCCCGUGUUAAUAACUUGGUCUGAAAUCUGUUUUUAUGAGCCGGGCCCCCUGUGCCUCUA,0.334
ACAUAACUGUUCUUAAAAAGUCAAUUAUAAUUUGUAACUCACAUCCUUUGAGCUAAACUAAAUUAAAAUUACAGUAUUUAAUAAUUCUUUGGGCAUUUUUAAGAGGUCUG,0.437
UCCUCGUCUUCUUCAUCCUCAUCAUCCUCCACGUGCAGUGAUGUGGCAGCACAGACCCCUGGAGGCCCCGGAGGACCCGAGGCGGGGUCCAAGGCUGAGUGAGAGCCGGC,0.468
CUGUCCAGUAUGGAGGAACACUCACCUGGACUUGCAGUUGGACUUUGAACAUCAAGAUCAAAUUAGUGGAUGCUGUCGUCUCUUAAAGCUGGUUUUAUUUGUCUCUGGUC,0.429
AGGCAGAGACAGGAAGACCGCCGAAAGGUCAAGGAUAGCAUGGUCUACGUAUCGAGACUCCAGCCAGGGCUACGGUCCCAAGAUCCUAGGUUUUGGAUUUUGGGCUUUGG,1.34

# Sample 2
# Target: Ras GTPase-activating protein-binding protein 1, C-terminal RGG region (G3BP1, Homo sapiens, UniProt Q13283)
# UniProt Q13283, sequence (whole entry, looked up): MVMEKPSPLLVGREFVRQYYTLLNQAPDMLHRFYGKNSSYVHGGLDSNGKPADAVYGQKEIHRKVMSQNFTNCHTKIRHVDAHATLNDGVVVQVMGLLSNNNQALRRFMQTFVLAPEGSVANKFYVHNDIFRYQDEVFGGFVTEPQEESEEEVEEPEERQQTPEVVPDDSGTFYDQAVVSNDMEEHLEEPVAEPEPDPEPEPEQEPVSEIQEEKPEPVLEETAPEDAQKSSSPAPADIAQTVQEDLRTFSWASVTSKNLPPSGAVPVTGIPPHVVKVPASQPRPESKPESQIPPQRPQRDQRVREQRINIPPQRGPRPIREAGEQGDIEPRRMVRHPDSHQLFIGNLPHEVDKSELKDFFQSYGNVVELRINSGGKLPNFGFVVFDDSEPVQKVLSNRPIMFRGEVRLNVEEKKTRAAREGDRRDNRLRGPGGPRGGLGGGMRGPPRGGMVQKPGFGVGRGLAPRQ
# Method: RNA Bind-n-Seq
# Molecule type: RNA
# Sample: in vitro
# Concentration: 1 µM
# Setting: whole 134-nt RNA, ends assumed
# Together with: 150 mM KCl
# Relative to: input library
# Direction: higher = stronger binding
# All sequences stand within: GGGAGUUCUACAGUCCGACGAUC … UGGAAUUCUCGGGUGUCAAGG
Sequence,log2 enrichment
UGAACCUUCCAAUAGCAACCAAGAAAUAAACUCUGAUGACAGACGACCCCAAUGGAGACGAGAAGACCGAAUUCCUUACCAAGACAGAGA,-0.861
GCAGGAAGUAAAAACAAAUGGAAAUGCUUCGGAUAGUGGCAGGGGUGGGGGUUGCUAAGGAAAGGGUGGGAUGGGAAAGGGUAAAGAGUU,2.13
ACCAUGCAGGAAAGCAUCUUUGGGAAGUGGGGCAAGGGGGGGAUAGGGAGGGGGGUAACACUUUGGGAACAGGUGGUCCCAGGUCGUUUC,-1.17
CAAGUCCUGUGCUACACAUCGUAUGUACCGAAUCGGUGGAAAAAAAGGAAAAAGGAAAGUAUUAUGUUACGCCGUUCGGAUCUGCACUUC,-1.58
GUCCUGUGCUACACAUCGUAUGUACCGAAUCGGGGCCCCCGGGCCCCCGGCCCCCGGGGAAAGUAUUAUGUUACGCCGUUCGGAUCUGCA,-1.45
CAAGUCCUGUGCUACACAUCGUAUGUACCGAAUCGGGGCCCGGGGCCCGGCCCGGGAAAGUAUUAUGUUACGCCGUUCGGAUCUGCACUU,-1.76
CUCAAGUCCUGUGCUACACAUCGUAUGUACCGAAUCGGGGCCGGGCCGGCCGGGAAAGUAUUAUGUUACGCCGUUCGGAUCUGCACUUCC,-1.04
GCAGGAAGUAAAAACAAAUGGAAAUGCUAAAGAUAGUGGCAGGGGUGGGGGUUGCUAAGGAAAGGGUGGGAUGGGAGUGGGUAAAGAGUU,2.1
CACAGACAACACGCACCCACACAGACACAGAGGGAAGGGGUUGGGAUGGGGACAGGGUGCACAGCAGGGCGGGGUAGGACCCCAGCCGCU,-0.75
AGUCCUGUGCUACACAUCGUAUGUACCGAAUCGGGUUUGGGAAAAAAAGGGAAAGGGAAAGUAUUAUGUUACGCCGUUCGGAUCUGCACU,0.704
UAACUUUAGAGGAGGAUCUGAUGGAUAUGGCAGUGGACGUGGAUUUGGGGAUGGCUAUAAUGGGUAUGGAGGAGGACCUGGAGGCGGCAA,-0.804
GCAGGAAGUAAAAACAAAUGGAAAUGCUUCGGAUAGUGGCAGGGGUGGGGGUUGCUAAGGAAAGGGUGGGAUGGAAGUGGGUAAAGAGUU,1.63
UCCUGUGCUACACAUCGUAUGUACCGAAUCGGUUUUUUGGGUUUUUUGGGUUUUUUGGGGAAAGUAUUAUGUUACGCCGUUCGGAUCUGC,-0.907
UAACUUUAGAGGAGGAUCUGAUGGAUAUGGCAGUGGACGUGGAUUUGGGGAUGGCUAUAAUGGGUAUGGAGGAGGACCUCGAGGUGGCAA,-0.786

# Sample 3
# Target: Histone acetyltransferase KAT6A, winged helix 1, GST fusion (KAT6A, Homo sapiens, UniProt Q92794, residues 1-85)
# Method: protein binding microarray
# Molecule type: double-stranded DNA, one strand shown
# Sample: in vitro
# Concentration: not given
# Setting: 8-mer, flanks averaged, mean of 2 arrays, mostly near background
# Relative to: not given
# Direction: higher = stronger binding
# Construct (chain): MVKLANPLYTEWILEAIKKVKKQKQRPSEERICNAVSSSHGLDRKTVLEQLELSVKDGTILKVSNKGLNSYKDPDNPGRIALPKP
Sequence,E-score
ACGGAAAA,0.138
CCTGGAGA,-0.229
CGCAATCC,0.205
TGGGTTAA,-0.21
GGTCCTAA,0.0197
GTAAGAAA,-0.118
CCGCTCGC,0.357
GCCCACGC,0.144
CACCAGCA,-0.247
GCCACCAC,-0.0175
AGCCCTTG,-0.106
AAGCGTGG,0.127
CCCTAATA,-0.117
AGAAACCC,-0.0292
GTATTCGA,0.00282
ATGTAAAT,-0.0656
ACTATCGA,0.00593
CTCATATC,-0.176
GCACAGGC,0.037
GTCACCAC,0.0374
AAAAAAGC,-0.0116
AGATACCT,-0.0962
CTGGGGTC,-0.165
ACTTCGCT,0.0348

# Sample 4
# Target: Interferon regulatory factor 5, full length, phosphomimetic (IRF5, Homo sapiens, UniProt Q13568-2, residues 1-514, S451D/S453D/S456D/S462D)
# Method: protein-binding microarray
# Molecule type: double-stranded DNA, one strand shown
# Sample: in vitro
# Concentration: 940 nM top
# Setting: 60-bp whole probe
# Together with: salmon DNA 0.4 mg/ml
# Relative to: random background probes
# Direction: higher = stronger binding
# All sequences stand within: GCCTAGCAC … GTCTTGATTCGCTTGACGCTGCTG
Sequence,fitted relative affinity [z-score]
GACGGTCCCCTACTGCTGACGTGCTAG,0.231
GACGATTCCGGTTTCGAGACGTGCTAG,4.29
TTAGCTCTCCTTTTCCTTTAGTGCTAG,0.94
GTCGATATCGGGACTGGAGACGTGCTA,0.0297
TGTGTTTTCATTTTATGACAGTGCTAG,1.48
AACGGTTTCCTTTTCCTGACGTGCTAG,2.02
GACGGACCGGGTATCGGGACGTGCTAG,0.449
TCAAATATGAGACTGGGACTGTGCTAG,-0.253
CTCTGGGGCTCCAGGGAGAAGTGCTAG,-0.837
TTAGGTCTCCTTTTCCATTAGTGCTAG,0.654
TCAATTCTGCTTTGCAAACTGTGCTAG,0.0272
TTTGGTCTCCTACTGCTTTAGTGCTAG,0.455
GAAGGACTGGGGACTGGGGACGTGCTA,-0.629
TTAGGTTTCGACACTGGGTGAGTGCTA,7.85
GACGGTTTCGGGACTGGGGACGTGCTA,6.47
TTGGGTTTCGGACTGGGTTAGTGCTAG,6.08
GACGGACGGGACACTGGGGACGTGCTA,-0.42
TTAGGTTCCGGTTTCGGTGAGTGCTAG,7.87
